Assay results gathered from unrelated publications.
Every numbered part comes from another study and shows a few of its results, in no order. Positions count from the first letter of the parent shown.

Study 1
Target: RNA binding protein fox-1 homolog 2, RRM domain, GST-SBP tag (RBFOX2, Homo sapiens, UniProt O43251-10, residues 100-194)
Technique: RNA Bind-n-Seq
Molecule type: RNA
Sample: in vitro
Tested at: 365 nM
Notes: natural RNA segment, single round, ends assumed
Baseline: no-protein control
Reading: higher = stronger binding
Measurement: RBNS enrichment (R)
Construct (chain): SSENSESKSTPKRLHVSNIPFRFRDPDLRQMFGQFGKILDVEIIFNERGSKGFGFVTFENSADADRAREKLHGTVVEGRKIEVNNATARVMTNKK
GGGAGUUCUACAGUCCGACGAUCGUAUCCUGGAUGGUCUCAUAACGUUGGCCAUAAUAGGUACAUAAUCAGAAGAUCACUUAGACAACAUCUGAUAUUAAUGUGAUUCUUGCAUUCAAGACACUUGCAAAUGUUGGAAUUCUCGGGUGCCAA: 0.251
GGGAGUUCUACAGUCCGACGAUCAUAAUAGGUAUAUUAACUGAAUUUCAUUAGUUUUUUAAAAUAAUAUUGUUUGUGUAUAUAUACAUAUAAAAUAAAAACAUUUACAACAAAUAAAAUACUUGAAAUUCUUGUGGAAUUCUCGGGUGCCAA: 0.86
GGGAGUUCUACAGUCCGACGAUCCAACCCAGUUGUUCCAGCUGUUCACAACCAGUGUGUGAUUUUGCUUAGUUGGUGCCCAUUCUGCACCAGUUGUUUUACCCCUGCCGAUAACCAGCAGUCAGAGAUUCUUUUGGAAUUCUCGGGUGCCAA: 0.671
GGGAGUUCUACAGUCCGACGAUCCUAAAAAGCAUUUUGAAACAUACAGAAUGUUCUAUUGUCAUUGGGAAAUUUUUCUUUCUAACCCAGUGGAGGUUAGAAAGAAGUUAUAUUCUGGUAGCAAAUUAACUUUAUGGAAUUCUCGGGUGCCAA: 0.555
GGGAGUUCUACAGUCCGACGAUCUGAGCUGUGUUAAACCUCAGAGUUUAAAAGCUACUGAUAAACUGAAGAAAGUGUCUAUAUUGGAACUAGGGUCAUUUGAAAGCUUCAGUCUCGGAACAUGACCUUUAGUCUGGAAUUCUCGGGUGCCAA: 0.375
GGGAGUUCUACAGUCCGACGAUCCUUGUCACAGCUUCGUGGUGACCGUCCAUCCCUGGGCAGCAACAAAGAGAACUCCAGGCUCAGCAUUCUGUUGAGUAACUUGCUACCUGCUCGGCUUUCCACUCUGCCAGUGGAAUUCUCGGGUGCCAA: 0.265
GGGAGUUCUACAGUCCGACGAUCAAAAAACAUGUGUCCUAGCUGGGCAUAGUGGUGCAUACCUUUAAUCCCAGCACUUGGGAGGCAGAGGCAGGUGAAUUUCUAAGUUCAAGGCCAGCUUGGUCUAUAGAGUGUGGAAUUCUCGGGUGCCAA: 0.201
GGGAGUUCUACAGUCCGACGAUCUUAGCUUAUUAGAACUCUUGGUGGAGGGUGCGUACACACAUUCCAGAAAAGGCUUCACUCGCUGGGAACGUCAACCCAGCGAGAAAGGAGGGGAAGCCCCUUCUCCGGGGUGGAAUUCUCGGGUGCCAA: 0.229
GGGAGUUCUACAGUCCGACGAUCCUGGACGAUUCUGCUCCUCAGCUCCAAAGAAUCCUGGGGUCAACGUCCCAGGCCAGCCGCAUGGGACAUAUGUACAUAGGUCUUCGCAAUGUUCUCUUGUUACUGGUGCCUGGAAUUCUCGGGUGCCAA: 0.403
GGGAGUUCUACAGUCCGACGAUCAGCCCGGGUGGGGCUGCAGAAAAAUGAUUGGCCCCAGUCCCCUUGUUUGUCCCUUCUACAGGCAUGAGGAAUCUGGGAGGCCCUGAGACAGGGAUUGUGCUUCAUUCCAAUGGAAUUCUCGGGUGCCAA: 1.6
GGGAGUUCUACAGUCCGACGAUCUCCAUAAAAUCCUAAGCCCUUUUAUUAAUGUAUAACCAGGAGAACAUCUGUGCCAACGGUUGGACUUUUUAUGGCUGAGAUUCGGGAGGAAGUGUGACACCAAGCAGGAGUGGAAUUCUCGGGUGCCAA: 0.314
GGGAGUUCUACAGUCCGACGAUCCAUACCUGUCACUGCUGGAGUCAAACUUAUAAAAAGCCUUAAGUGGAAAGUGUUCCAGACGGAGACUCUGAGUUAAUAGAGGAGUAGAAGCUGGUGUUAAAGUUCCCACGUGGAAUUCUCGGGUGCCAA: 0.343

Study 2
Target: Histone acetyltransferase KAT6A, winged helix 1, GST fusion (KAT6A, Homo sapiens, UniProt Q92794, residues 1-85)
Technique: protein binding microarray
Molecule type: double-stranded DNA, one strand shown
Sample: in vitro
Tested at: not given
Notes: 8-mer, flanks averaged, mean of 2 arrays, mostly near background
Baseline: not given
Reading: higher = stronger binding
Measurement: E-score
Construct (chain): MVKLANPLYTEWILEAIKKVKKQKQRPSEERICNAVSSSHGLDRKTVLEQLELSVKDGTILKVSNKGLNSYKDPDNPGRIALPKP
AAATAAAC: -0.0834
GTCTATAA: -0.134
AGCAAACC: -0.17
GTAACGTA: -0.01
GGCGTCAC: 0.169
AAAGACCC: -0.127
CCGCCCCG: 0.392
GCGATGTA: 0.121
CGTAAGCA: -0.0659
GGCACCCC: 0.148
CCTATTCC: 0.0842
CCAGGGCC: -0.0227
ACTTACAG: -0.213
ACATTAAC: -0.0938
ACCTTGAC: -0.0424
CGGGACCG: 0.408
GTAACAGA: -0.0224
ACGTAAGC: -0.0357

Study 3
Target: ABI1, truncated, D143A, DHFR fusion (Arabidopsis thaliana)
Technique: DHFR PCA, deep sequencing
Sample: yeast
Notes: methotrexate growth selection, single substitutions
Together with: (+)-ABA 58 µM
Baseline: wild-type fitted maximum
Reading: higher = stronger binding
Measurement: relative binding score
Parent: PYL1, truncated, DHFR fusion (Arabidopsis thaliana); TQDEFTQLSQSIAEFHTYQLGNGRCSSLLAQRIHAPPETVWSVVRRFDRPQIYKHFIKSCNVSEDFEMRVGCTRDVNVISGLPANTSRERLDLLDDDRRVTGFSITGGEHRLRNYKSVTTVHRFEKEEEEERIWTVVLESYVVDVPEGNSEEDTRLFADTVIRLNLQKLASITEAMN
G71W: 4.79%
T154G: 2.94%
V121Q: -6.83%
L93M: 76.6%
V43C: 51.5%
C25N: -34.1%
V161F: 74.6%
V40C: 31.6%
S150K: 59.8%
D95T: 8.56%
A13R: 82.1%
E139F: -8.69%
V44I: 87.9%
G107V: 10.5%
P146Q: 32.9%

Study 4
Target: CCNB3, cyclin fold, Cln2 fusion (human)
Technique: yeast growth competition, sequencing
Sample: yeast
Notes: weak parent motif
Baseline: not given
Reading: higher = stronger binding
Measurement: normalised enrichment score
Parent: E2F1 docking peptide (human); PPVKRRLDLETDH; partner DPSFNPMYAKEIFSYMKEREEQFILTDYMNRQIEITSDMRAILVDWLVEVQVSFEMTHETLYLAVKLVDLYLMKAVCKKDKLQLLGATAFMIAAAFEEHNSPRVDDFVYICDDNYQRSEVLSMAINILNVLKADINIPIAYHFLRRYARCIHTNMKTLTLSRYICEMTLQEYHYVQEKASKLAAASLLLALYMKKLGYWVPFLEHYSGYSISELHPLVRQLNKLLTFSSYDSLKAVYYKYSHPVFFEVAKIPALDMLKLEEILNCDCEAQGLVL
P2N: 0.18
P1Q: 0.395
R5P: -0.432
D12L: 0.45
T11A: 0.272
P2D: 0.379
R6K: 0.138
H13D: 0.345
L7R: -0.472
P1D: 0.0264
T11D: 0.0366
H13W: 0.203
P2R: 0.106
P2S: 0.248
V3N: 0.542

Study 5
Target: RING finger protein unkempt homolog, zinc fingers 1-6, GST-SBP tag (UNK, Homo sapiens, UniProt Q9C0B0, residues 30-357)
Chain of UniProt Q9C0B0 (30-357, looked up): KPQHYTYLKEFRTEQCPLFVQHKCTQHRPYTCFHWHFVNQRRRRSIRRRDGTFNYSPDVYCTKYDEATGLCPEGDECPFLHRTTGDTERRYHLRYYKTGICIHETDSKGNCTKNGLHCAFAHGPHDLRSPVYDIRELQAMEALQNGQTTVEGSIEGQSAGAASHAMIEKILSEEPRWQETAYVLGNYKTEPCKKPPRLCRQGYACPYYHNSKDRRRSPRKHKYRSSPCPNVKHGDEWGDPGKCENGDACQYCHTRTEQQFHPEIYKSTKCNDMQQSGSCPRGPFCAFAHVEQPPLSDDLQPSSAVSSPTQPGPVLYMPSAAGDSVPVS
Technique: RNA Bind-n-Seq
Molecule type: RNA
Sample: in vitro
Tested at: not given
Notes: RNA with constant flanks, human and mouse sites, ends assumed
Baseline: input RNA pool
Reading: higher = stronger binding
Measurement: bound/input enrichment
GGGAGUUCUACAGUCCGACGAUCUUCUGUGCACAUCAGUUGGCUGGUGAACAAGGCUAUAUCAGACUUAUUUUCCAAGGACCUUUAGACUAGCAGCUGUCCUCCAGGACUGCAUUGUAAGUUUAUAAGCUAAGUGAUUGGGUUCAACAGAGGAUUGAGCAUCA: 0.213 ratio
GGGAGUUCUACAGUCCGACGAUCAACAGUGGAGAAGAGUUAGAAUCCUACAAAGGUCACUUUGGUCCCAUUCACUGUGUGAGAUUCAGUCCUGAUGGGGAACUCUAUGCCAGCGGUUCUGAAGAUGGGACAUUGAGAUUGUGGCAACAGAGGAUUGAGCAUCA: 0.19 ratio
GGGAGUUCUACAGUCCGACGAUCUCAAAAAAAAGUGUAUUUCAGACUUGGUAUUCCUACUGUGGGGUGUGGUUUUCCUUUGUUUUUAGUAGCAAAUUUGGAUGUAGACUGACAGACAUAGCUGAAUGUCUUAAUAAAUUUAAACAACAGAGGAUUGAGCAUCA: 1.12 ratio
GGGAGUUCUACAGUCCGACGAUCUUUGGGCAAUGCUAUGAGUUUCUCACUCUUCAUACAGUGAAAAAGUACUUUCUUCCAAUAAUAGAAAUGGUUCCACAGUUUUUAGAAAACUUAACUGAUGAAGAACUGAAAAAAGAAGCACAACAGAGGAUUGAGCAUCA: 0.779 ratio
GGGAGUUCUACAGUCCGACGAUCGGUCUAAACAAAUGUGAAGUUAGUCAUAGGCGAGCCUUUCAUGGCUGGAAUGAGUUUGAUAUUAGUGAAGAUGAGCCACUGUGGAAGAAGUAUAUUUCUCAGUUUAAAAAUCCCCUUAUUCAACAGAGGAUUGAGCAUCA: 3.03 ratio
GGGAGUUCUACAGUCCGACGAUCAAUAGAAACCAAACCAAAUGGGCACCCUGGGUUGCCCAGGGGCAGGGGAUGGGAGGGGGGUGGGAAGAAGGGAUGUCUGUCUGUCAGUCCCCUCCCCCUCUCCACUCCUUACCCACAAAGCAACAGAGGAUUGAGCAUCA: 0.234 ratio
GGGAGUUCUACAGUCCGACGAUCGUCAUCAAGUUUGAUAAGGAGGAAGAGGCCGUCGCCAUCGCAAAUGCAGCUGAGGUUGGAUUGGCAGGUUACUUUUACUCUCAAGACCCGGCCCAGAUCUGGAGAGUGGCGGAGCAGCUGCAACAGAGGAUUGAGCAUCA: 0.391 ratio
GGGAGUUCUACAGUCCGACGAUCCUGUUCUAUUUCUCCUUCGGCCGCCGCCGCCACUGCUGCACACAGCUGGUGUCGGUGCCGCGCUUUUACCCCCAAGUCGUUCCCGCAGCCUAUGGCCCAGGCCGCCUUGGGUAUUUCUGCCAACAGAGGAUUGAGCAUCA: 0.118 ratio
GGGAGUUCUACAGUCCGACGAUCGUAUGCCAGGGAACACACAUUCUCUUUCGAGAAUUCAGCUUCGUCCAAGCCACCCCCCACAAUAGGGUAUCAUUUUUACGGGCCUUCUGGAGAUGCUUCCGAACUGUGGGCAAAAAUGGCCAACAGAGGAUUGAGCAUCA: 1.32 ratio
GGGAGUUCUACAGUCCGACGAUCUUGAAACUUUCUCCAAUUAAAUAUGGCUACCAGCCCCGCAGGAACUUUUGGCCAGCAAGGUUAGCUGCAAGACUCUUAAAACUUCGAUAUAUCAUACUGGGAUCUGCUGUUGGAGGUGGCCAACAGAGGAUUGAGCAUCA: 0.746 ratio
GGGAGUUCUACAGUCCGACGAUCCAUCUAGUUCUGACUCCACUGAUGCAUUCAGAUUACCUGAGGUGGGUGAGCAUCAGUGGGUUCUUGGAUGACUGUUUCCUGACGAUUCUUUUCAUGCUGUACUAUGGAGUAUAUGAAGGGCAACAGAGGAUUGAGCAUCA: 0.18 ratio

A few entries again (study 4):
R5P: -0.432
D12L: 0.45
T11A: 0.272
P2D: 0.379
R6K: 0.138
H13D: 0.345
